Experimental data from different studies.
Each numbered part is a random draw from the data of one study; scales do not carry over between parts. Changes are numbered by the printed parent chain.

Series 1
Target: Interferon regulatory factor 7, full length, phosphomimetic (IRF7, Homo sapiens, UniProt Q92985, residues 1-503, S101K/S471D/S472D/S475D/S476D/S477D/S483D/S484D/S487D)
Sequence of UniProt Q92985 (whole entry, unmodified, looked up): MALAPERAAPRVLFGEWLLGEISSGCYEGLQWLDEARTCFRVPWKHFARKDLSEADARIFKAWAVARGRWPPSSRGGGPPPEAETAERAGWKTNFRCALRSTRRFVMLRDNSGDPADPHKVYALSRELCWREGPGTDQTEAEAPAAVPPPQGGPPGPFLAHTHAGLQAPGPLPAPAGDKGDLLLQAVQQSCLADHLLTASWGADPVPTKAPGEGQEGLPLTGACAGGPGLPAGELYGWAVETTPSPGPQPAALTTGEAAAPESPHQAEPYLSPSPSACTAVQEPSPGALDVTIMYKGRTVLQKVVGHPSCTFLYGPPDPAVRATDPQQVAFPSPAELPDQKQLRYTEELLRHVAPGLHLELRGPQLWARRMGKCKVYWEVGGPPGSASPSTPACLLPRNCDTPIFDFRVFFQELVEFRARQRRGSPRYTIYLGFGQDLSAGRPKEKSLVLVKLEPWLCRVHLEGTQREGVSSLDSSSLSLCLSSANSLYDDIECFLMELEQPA
Technique: protein-binding microarray
Molecule type: double-stranded DNA, one strand shown
Sample: in vitro
Tested at: 250 nM
Setting: 60-bp whole probe
Together with: salmon DNA 0.4 mg/ml
Reference: random background probes
Reading: higher = stronger binding
Constant ends, left off below: GCCTAGCAC … GTCTTGATTCGCTTGACGCTGCTG
Sequence	log fluorescence
GACGAACTGAGTTTCAAGACGTGCTAG	0.0502 z-score
TTAGGACTGGGGTATCGTTTAGTGCTA	0.406 z-score
CTAGGTCTCCTTATCCTTTAGTGCTAG	0.71 z-score
TTAGAACTGAGACTGGATTAGTGCTAG	-0.0495 z-score
TCAAAGCTTCCTCTCTGACTGTGCTAG	0.00142 z-score
GACGGTCTGGGTTTCGGGACGTGCTAG	1.78 z-score
GACGGACCGGGGTTTCGGGACGTGCTA	1.46 z-score
GTCGATCTCAGACTGGAGACGTGCTAG	0.0699 z-score
TAAGATCTCAGTATCGATTAGTGCTAG	1 z-score
TTAGATTTCAGTTTCGAATAGTGCTAG	4.94 z-score
TTAGGACTGGGTATCGGCTAGTGCTAG	-0.247 z-score
TTAGAAGTGAGTCTCGATTAGTGCTAG	0.848 z-score
GACGATTTCAGTATAGAGACGTGCTAG	0.228 z-score
GAAGATATCGGGACTGGAGACGTGCTA	-0.578 z-score
GACGATTTCAGACTGAAGACGTGCTAG	-0.143 z-score
TTAGATTTCGGGTTTCTATTAGTGCTA	3.91 z-score
GACGGTCTCCTTTTCATGACGTGCTAG	0.972 z-score

Series 2
Target: Histone acetyltransferase KAT6A, both winged helices, GST fusion (KAT6A, Homo sapiens, UniProt Q92794, residues 1-181)
Technique: protein binding microarray
Molecule type: double-stranded DNA, one strand shown
Sample: in vitro
Tested at: not given
Setting: 8-mer, flanks averaged, mean of 2 arrays, mostly near background
Reference: not given
Reading: higher = stronger binding
Target sequence (chain): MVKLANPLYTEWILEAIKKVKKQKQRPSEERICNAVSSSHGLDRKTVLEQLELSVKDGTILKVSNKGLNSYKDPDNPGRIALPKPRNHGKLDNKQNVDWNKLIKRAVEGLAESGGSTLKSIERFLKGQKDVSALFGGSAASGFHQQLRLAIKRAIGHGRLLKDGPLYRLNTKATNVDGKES
Sequence	E-score
GCTGACAC	0.0189
AATGAGAT	-0.145
GGCAGGGA	-0.0245
GCACTAGA	0.0425
AGGCCCCG	0.0502
ACCAGGGT	-0.2
TACGCAAA	-0.0131
TATTATCA	-0.106
CCATTTCG	-0.161
ACAGCCTC	-0.116
AGTCTCAC	-0.0138
AAAAGATA	-0.0266
CGCACGCG	0.346
GACGGGCA	0.23
ATGATTGA	-0.192
TCCTCCGA	-0.0716
CAACACTG	-0.1
AACTGATA	-0.00156
CCTCTTCG	0.0392
AGGGCCTA	-0.161
AAGCAAAG	-0.0844
GGTCGGGA	0.0922
AGACCTCA	-0.0679
ACTGGGGC	-0.165
ATGGCTGC	-0.05

Series 3
Target: Probable WRKY transcription factor 33, N-terminal DNA-binding domain (WRKY33, Arabidopsis thaliana, UniProt Q8S8P5, residues 169-264)
Technique: DNA-protein interaction ELISA
Molecule type: double-stranded DNA, one strand shown
Sample: in vitro, bacterial lysate
Tested at: not given
Setting: whole dsDNA probe, crude lysate protein
Reference: highest signal in screen
Reading: higher = stronger binding
Residues (chain): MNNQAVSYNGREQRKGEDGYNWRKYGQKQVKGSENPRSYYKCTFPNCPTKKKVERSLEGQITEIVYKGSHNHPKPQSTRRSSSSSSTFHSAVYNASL
Sequence	relative absorbance
AAAAAAACATCCACACCCGCGGCGCGAAAA	19.1 % of maximum
AAAAAATATTCGCCGGTAGCCACGCTAAAA	33.3 % of maximum
AAAAAACACTCACACCTATACGGCTCAAAA	20.2 % of maximum
AAAAAACCGTATGTATATCTATATGTAAAA	24.6 % of maximum
AAAAAAATGGTGCCGCTGAGCAAATTAAAA	19 % of maximum
AAAAAAGGTTTAGCCCATGCCTGTGCAAAA	21 % of maximum
AAAAAAAACAAAACCTCCTAATAGCGAAAA	23.6 % of maximum
AAAAAAAAATGCTAGCGCGTACGTAAAAAA	20.6 % of maximum
AAAAAATACTCTTCCTCGTTCTTGGTAAAA	20.4 % of maximum
AAAAAACTGTCTGTCCTATATCACTTAAAA	24.9 % of maximum
AAAAAACAGTTCGATGTCACCCCCGCAAAA	35.2 % of maximum
AAAAAATCGTAAATGCCCATAGCCGTAAAA	21.7 % of maximum
AAAAAACTTCCCTCCTTGTCCTCCCCAAAA	31.4 % of maximum
AAAAAACACTGCACTATTGGGAGTTCAAAA	20.1 % of maximum
AAAAAAATTCATGCTATTTAACCTTAAAAA	31.5 % of maximum
AAAAAATTCTAACTTAGCCTATGTCCAAAA	26.6 % of maximum
AAAAAATGACCAGGCCTCGAGCAAAAA	19.8 % of maximum

Series 4
Target: ABI1, truncated, D143A, DHFR fusion (Arabidopsis thaliana)
Technique: DHFR PCA, deep sequencing
Sample: yeast
Setting: methotrexate growth selection, single substitutions
Together with: (+)-ABA 710 µM
Reference: wild-type fitted maximum
Reading: higher = stronger binding
Starting sequence: PYL1, truncated, DHFR fusion (Arabidopsis thaliana); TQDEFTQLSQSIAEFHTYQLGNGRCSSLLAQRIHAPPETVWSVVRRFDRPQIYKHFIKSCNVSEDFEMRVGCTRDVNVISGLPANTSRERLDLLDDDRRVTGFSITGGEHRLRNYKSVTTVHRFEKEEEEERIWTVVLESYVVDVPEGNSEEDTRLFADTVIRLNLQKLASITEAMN; partner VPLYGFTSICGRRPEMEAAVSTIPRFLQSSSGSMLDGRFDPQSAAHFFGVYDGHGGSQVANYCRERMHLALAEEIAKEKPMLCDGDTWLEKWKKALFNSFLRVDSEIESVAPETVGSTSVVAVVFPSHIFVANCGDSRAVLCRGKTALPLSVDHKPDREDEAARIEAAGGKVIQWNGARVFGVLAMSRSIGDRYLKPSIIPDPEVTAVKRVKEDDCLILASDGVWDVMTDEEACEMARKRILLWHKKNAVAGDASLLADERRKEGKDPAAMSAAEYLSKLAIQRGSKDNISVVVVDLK
Substitution	relative binding score [%]
V161Q	36.1
E129N	105
I52W	102
E147G	98
H122T	81.8
V70L	94.6
S80E	66.5
D153I	11.6
G102H	9.06
L82I	106
T160E	60.6
M176A	102
E174F	83.8
L156M	106
Q31H	94.9
E125Y	114
K58A	100
V143G	23.7
F5C	106
M176I	93.4
D159Q	83.7
Q19K	100
S87R	19.6
F157E	-8.58

Series 5
Target: Sal-like protein 4, full length isoform B (SALL4, Homo sapiens, UniProt Q9UJQ4-2, residues 1-616)
Technique: universal PBM
Molecule type: double-stranded DNA, one strand shown
Sample: in vitro
Tested at: not given
Setting: 8-mer, flanks averaged, mean of replicates
Reading: higher = stronger binding
Target sequence (chain): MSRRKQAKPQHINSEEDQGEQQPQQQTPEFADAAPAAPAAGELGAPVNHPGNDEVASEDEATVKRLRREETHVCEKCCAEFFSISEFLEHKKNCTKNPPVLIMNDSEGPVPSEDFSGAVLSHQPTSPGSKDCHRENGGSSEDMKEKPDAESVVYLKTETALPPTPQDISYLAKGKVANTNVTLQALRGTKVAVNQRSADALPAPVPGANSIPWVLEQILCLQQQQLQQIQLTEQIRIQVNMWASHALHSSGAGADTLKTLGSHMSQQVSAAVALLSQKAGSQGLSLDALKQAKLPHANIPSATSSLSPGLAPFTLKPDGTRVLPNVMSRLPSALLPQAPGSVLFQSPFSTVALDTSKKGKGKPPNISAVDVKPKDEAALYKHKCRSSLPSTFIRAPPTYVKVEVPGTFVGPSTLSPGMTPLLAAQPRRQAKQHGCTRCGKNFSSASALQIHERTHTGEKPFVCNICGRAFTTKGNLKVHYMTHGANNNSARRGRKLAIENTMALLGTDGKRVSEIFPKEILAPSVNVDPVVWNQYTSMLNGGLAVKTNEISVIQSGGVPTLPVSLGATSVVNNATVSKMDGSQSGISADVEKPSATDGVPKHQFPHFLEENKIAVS
Sequence	E-score
GCGTACGA	-0.0475
ACGTCCCC	-0.132
CGGGTGAC	-0.288
ATAGGTGC	0.054
ATGAAAGG	0.217
GATCGTCA	0.127
CTATAGCA	0.231
AGACGTAC	-0.0192
ACCCGAAC	-0.0676
GGCGGCTA	-0.187
CGACGATC	-0.054
AAACTGGT	-0.106
AACGGACA	-0.0408
ATGCACGG	-0.255
GAAGGCCA	-0.243
ATTATAAC	0.342
ATATGCCG	0.155
ACGGCGAG	-0.193
CCTGTTGC	-0.0411
CGTGGAAA	0.153
TTGTCAAA	0.219
AGAGGCCG	-0.299
GTAAGTGA	0.114
ACAGACAG	-0.0314

Series 6
Target: RING finger protein unkempt homolog, zinc fingers 1-6, GST-SBP tag (UNK, Homo sapiens, UniProt Q9C0B0, residues 30-357)
Technique: RNA Bind-n-Seq
Molecule type: RNA
Sample: in vitro
Tested at: not given
Setting: RNA with constant flanks, ends assumed
Reference: input RNA pool
Reading: higher = stronger binding
Construct (chain): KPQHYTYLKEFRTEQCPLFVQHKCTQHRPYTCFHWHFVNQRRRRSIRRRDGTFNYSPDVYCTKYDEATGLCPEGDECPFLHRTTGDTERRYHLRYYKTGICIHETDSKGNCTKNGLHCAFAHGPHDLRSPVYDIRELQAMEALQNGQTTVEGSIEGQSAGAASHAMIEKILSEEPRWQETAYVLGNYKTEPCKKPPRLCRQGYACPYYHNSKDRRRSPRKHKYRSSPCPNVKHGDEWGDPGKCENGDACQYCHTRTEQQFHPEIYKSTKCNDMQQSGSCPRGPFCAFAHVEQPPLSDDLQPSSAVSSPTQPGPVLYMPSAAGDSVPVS
Sequence	bound/input enrichment [ratio]
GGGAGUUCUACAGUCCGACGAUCAUUGAGUGCGGCUGGAAGGAUCAGCUAAAGGCACACUGUAAAGGUAAUUAAAGAAAAAGGACCCGAACACGUUACUGUUGAUGACUUGGUGGCUGAAAUCACUCCAAAAGGCAGAGCCCUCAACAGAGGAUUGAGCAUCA	0.111
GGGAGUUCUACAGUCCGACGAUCAAGUCCCUGUUAUACUGAGUCAAAUCCAUUUUCUGGGUGAAUAAAUUUGGCCCUGCAGUGCCGCUCUUGUUCACCCUUUCCUUCCUUGGUGUUGUGUGUGAGAGAUGAGUGUUUUCCUGUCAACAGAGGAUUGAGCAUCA	0.156
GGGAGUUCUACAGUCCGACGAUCCUUGAAAGUUCGGGGGCAUUUUGUUGUGUUCUGUAGGAGAGAGGGGGAGGACCCUGUUCGGGCCGUUUGGCCGGACUGGUACUGGCCGUUGGAAAACCCGAAGUACAUUUCCGUGUGGAACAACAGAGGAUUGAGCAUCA	0.241
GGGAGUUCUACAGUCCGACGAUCAGAGAAAUCCUGUCAGAUGACAAGCAUGACUGGGAGCAGAGAGUAAAUGCUCUAAAAAAGAUCCGAUCGUUACUCUUGGCUGGGGCUGCUGAGUACGAUAACUUCUUUCAACACUUGCGUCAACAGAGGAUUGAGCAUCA	0.094
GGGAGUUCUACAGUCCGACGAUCUGGGAUGAAAAUCUCAAAGAUGAUUCUCUUCCUGAAAAUCCAAUAGACUUUUCUUACAGAGCCGCUGCUUGUCUUCCUAUUGAUGAUGUAUUGAGAAUUCAGCUCCUUAAAAUCGGCAGUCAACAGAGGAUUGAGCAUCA	0.2
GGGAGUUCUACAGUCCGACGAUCACUAACAAAAGUGCCUCAUGAUAAAAGUACAUUUGAUUUUUAGGGUGCCAUAUUGUUAAAAUCCGAAAAUUGAAUAAAUGAAUGCAUUUUAUCAGUAACAAGUUUCCUUCCAUUUACCAGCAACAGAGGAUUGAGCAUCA	0.22
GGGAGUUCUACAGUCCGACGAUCAAUUUAGAGGAGUAUCUAAGACUGGUUAUAUUCUGGGCACUAAAUGAAGGCGUUUCCCGGCAAUUUGAUUCGUUCAGAGAUGGAUUUGAAUCAGUCUUCCCACUCAGUCAUCUUCAGUACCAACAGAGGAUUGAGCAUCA	0.155
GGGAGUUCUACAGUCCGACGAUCAUGGCACAACUUCUGGAUCUCUCUGUGGAUGAGUCAGAGGCUUUCCUCUCGAAUCCCGUCGUUAACAAGACCAUCUUUGCUAAAGUAGACAGGUUGGCUGGAGUCAUCAACUUCCAGAGACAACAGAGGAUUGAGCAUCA	0.185
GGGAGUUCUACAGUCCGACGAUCUAAAUGUUCCCGCUGUGUCCCUGGAUAUGGAAUAAGCAGGUAUAAAAAAUAUUUUAAUUACCGUUUUGUUAUAAAUAUAACUUAUGAGAAAAAAAUUUGAUAGGAAUAAUACUGUAUAUUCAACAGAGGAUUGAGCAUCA	2.76
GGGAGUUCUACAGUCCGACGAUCCGCAUUUUGAUGGUUGGAUUGGAUGCUGCUGGCAAGACGACAAUUCUGUAUAAACUGAAAUCCGGGGAAAUAGUCACCACCAUUCCUACCAUUGGUUUUAAUGUGGAAACAGUAGAAUAUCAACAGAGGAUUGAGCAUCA	0.49
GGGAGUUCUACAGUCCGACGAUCAAGGAGUAAGCAAAUUGGAGGUGGAGGGUGGGCCUCACCUUAUACUACAAUCAAACCUUGCCGUUUGGGGUGUUUUGUUUGUUUGUUUUGUAUUGUAUUGUUUUUAAACAAGUCUAGCCACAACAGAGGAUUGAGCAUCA	0.403
